# Experimental data pooled from the literature.
# Numbered parts are unrelated; each lists some results of a single study. Several values in a cell are separate wells, animals, samples, runs or records.
# Chain of UniProt P07949 (whole entry, unmodified, looked up): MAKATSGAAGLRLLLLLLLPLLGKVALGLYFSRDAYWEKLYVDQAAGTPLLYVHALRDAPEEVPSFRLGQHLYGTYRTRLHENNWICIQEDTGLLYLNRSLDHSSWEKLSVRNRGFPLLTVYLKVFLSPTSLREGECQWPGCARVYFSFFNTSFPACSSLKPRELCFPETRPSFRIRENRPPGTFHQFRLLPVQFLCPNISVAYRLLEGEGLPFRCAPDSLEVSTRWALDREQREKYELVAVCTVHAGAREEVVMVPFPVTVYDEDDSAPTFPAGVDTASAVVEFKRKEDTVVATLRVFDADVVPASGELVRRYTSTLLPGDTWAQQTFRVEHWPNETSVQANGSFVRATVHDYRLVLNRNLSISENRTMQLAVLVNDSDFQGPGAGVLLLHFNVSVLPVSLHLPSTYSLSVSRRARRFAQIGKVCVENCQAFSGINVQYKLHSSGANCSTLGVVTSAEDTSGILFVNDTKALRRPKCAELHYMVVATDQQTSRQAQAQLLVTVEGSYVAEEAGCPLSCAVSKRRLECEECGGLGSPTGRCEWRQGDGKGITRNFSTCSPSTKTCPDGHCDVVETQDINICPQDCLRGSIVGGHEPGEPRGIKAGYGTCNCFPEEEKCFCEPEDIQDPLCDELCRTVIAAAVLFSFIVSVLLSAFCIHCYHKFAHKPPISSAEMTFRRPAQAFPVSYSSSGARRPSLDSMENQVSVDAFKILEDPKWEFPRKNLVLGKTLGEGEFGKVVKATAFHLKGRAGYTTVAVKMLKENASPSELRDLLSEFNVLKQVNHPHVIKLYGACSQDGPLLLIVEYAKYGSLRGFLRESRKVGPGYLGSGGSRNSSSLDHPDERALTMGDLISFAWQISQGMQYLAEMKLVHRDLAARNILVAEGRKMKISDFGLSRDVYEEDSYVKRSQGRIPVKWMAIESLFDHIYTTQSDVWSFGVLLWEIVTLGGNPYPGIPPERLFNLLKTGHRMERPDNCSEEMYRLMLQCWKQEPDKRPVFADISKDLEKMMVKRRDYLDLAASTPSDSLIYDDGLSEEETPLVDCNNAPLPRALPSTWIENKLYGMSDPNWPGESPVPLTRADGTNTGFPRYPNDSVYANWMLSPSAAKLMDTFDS
# Chain of UniProt Q8TD19 (whole entry, looked up): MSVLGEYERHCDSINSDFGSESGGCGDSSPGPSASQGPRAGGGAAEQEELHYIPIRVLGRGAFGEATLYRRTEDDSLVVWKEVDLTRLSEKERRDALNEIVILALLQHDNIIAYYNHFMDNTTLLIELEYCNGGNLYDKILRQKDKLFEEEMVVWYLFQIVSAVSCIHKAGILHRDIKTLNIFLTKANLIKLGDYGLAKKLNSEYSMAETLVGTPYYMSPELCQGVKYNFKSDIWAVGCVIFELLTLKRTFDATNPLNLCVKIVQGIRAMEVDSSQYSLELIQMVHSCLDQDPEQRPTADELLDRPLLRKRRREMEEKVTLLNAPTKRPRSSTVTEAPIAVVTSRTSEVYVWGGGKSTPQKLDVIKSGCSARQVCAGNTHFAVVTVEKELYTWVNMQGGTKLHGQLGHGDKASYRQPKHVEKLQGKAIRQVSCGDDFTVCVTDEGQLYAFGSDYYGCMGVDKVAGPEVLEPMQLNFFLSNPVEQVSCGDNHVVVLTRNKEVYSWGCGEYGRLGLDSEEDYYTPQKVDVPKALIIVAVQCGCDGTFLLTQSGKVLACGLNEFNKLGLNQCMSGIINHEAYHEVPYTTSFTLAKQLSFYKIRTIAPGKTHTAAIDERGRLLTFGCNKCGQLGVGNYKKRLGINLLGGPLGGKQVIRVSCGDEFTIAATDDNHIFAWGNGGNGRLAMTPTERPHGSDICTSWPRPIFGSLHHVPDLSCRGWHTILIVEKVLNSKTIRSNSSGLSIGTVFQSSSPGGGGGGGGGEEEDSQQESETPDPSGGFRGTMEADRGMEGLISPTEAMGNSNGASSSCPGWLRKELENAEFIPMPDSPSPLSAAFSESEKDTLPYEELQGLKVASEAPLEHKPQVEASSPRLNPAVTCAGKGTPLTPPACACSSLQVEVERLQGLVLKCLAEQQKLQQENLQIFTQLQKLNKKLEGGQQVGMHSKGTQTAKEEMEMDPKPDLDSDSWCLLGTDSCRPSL
# Chain of UniProt Q8N752 (whole entry, looked up): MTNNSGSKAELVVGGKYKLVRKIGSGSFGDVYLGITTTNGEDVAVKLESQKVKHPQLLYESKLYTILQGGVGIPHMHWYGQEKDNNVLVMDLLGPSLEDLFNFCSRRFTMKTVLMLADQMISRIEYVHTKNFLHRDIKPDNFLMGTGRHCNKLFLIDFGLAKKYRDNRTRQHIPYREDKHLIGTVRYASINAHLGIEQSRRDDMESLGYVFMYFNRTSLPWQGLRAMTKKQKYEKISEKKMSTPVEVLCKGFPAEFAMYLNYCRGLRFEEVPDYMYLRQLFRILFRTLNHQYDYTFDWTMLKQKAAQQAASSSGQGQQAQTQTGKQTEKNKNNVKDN
# Chain of UniProt P31152 (whole entry, looked up): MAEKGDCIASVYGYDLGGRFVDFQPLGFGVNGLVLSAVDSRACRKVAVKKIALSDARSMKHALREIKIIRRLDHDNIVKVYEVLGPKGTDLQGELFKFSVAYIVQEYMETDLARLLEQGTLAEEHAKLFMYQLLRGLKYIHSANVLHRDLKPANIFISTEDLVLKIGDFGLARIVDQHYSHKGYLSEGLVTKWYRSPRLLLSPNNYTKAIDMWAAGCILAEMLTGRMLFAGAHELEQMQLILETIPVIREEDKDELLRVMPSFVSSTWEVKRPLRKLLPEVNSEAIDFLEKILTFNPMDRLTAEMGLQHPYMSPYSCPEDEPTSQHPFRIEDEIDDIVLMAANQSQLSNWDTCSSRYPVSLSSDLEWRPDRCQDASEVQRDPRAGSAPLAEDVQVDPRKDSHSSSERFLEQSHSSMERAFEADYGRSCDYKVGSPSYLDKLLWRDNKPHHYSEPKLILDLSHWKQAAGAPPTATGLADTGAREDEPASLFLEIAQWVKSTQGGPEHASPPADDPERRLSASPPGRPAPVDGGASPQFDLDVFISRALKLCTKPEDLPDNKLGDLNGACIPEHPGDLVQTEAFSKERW

# Sample 1
# Host: mouse
# Matrix: microsomes or S9
# Tested at: 2 µM
# Time: 0.5 h
SMILES,remaining compound [%]
COCCN1C(=O)c2ccccc2C(C(=O)N(C)c2ccccc2Cl)C1c1cccs1 (stereo not drawn),1.82
Oc1cc(-c2ccc(-c3ccc(Br)cc3)cc2)nn1-c1ccccn1,69.3
COc1cc2[nH]c3c(=O)n(-c4ccccc4)ncc3c2cc1OC,62.3
Cc1cc(C)c2nc(-c3ccc(Cl)s3)cc(C(=O)O)c2c1,> 100
Cc1nc(C2=C(N)N(C3CS(=O)(=O)CC3O)CC2=O)sc1C (stereo not drawn),84.2
CCOC(=O)c1cn(-c2nc(Cl)ncc2Cl)cc1C(=O)OCC,0.427
Cc1ccc(N2C(=O)C(=N)c3c2sc(C)c3C)cc1,52
c1ccc(-c2nc(Cc3nc4ccccc4[nH]3)no2)cc1,3.87
c1ccc(-n2ccc3cnc(N4CCCCC4)nc32)nc1,0.0479
O=C(Cn1nc(C(=O)N2CCc3ccccc32)c2cc(F)ccc21)OCc1ccccc1,0.364
CCN1CC(NC(=O)c2cc3n(n2)CCC3)CC1=O (stereo not drawn),99.3
COc1ccccc1CNC(=O)CCCCn1c(=O)c2ccccc2n(Cc2ccccc2C#N)c1=O,2.19

# Sample 2
# Target: Vascular endothelial growth factor receptor 3 (FLT4, Homo sapiens, UniProt P35916)
# Chain of UniProt P35916 (whole entry, looked up): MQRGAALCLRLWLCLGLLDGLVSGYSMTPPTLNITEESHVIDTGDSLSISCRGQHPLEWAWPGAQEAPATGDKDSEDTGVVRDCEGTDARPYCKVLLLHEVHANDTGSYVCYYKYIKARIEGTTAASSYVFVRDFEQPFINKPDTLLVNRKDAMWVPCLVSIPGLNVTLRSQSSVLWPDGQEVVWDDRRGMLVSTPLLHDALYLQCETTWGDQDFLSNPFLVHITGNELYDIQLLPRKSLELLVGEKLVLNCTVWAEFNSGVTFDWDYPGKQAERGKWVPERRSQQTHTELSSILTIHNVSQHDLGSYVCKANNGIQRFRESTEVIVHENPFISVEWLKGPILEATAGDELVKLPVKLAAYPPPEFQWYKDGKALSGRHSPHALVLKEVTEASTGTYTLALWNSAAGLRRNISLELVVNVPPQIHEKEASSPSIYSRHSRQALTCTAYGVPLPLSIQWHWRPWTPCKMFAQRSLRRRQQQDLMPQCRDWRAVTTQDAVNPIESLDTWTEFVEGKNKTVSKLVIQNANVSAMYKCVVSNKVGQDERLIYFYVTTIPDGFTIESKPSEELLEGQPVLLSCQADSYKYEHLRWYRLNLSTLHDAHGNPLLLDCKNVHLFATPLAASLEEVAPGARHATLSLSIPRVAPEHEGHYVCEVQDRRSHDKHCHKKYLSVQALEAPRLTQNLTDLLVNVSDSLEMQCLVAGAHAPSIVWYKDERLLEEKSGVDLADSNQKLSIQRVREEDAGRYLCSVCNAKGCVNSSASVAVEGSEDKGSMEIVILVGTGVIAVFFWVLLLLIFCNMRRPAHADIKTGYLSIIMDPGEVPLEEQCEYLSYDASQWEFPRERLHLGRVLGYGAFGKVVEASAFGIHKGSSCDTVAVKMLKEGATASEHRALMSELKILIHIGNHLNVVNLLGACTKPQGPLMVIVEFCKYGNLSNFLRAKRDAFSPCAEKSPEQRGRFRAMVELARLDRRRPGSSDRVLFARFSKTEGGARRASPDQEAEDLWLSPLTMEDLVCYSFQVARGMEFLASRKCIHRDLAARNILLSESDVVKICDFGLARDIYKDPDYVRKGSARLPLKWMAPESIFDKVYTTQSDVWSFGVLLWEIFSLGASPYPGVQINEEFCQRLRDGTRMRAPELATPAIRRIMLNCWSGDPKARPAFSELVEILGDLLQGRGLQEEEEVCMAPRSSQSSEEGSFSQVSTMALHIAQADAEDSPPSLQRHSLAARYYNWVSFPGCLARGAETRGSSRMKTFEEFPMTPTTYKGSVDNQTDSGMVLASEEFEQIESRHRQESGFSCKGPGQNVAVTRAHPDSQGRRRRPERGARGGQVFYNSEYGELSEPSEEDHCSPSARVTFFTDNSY
# Read-out: enzyme activity
# Action: inhibitor
# Tested at: 0.5 µM
# Reference: control
SMILES,remaining activity
Cn1nc2c3c(cccc31)C(=O)c1ccccc1-2,86.8%
c1ccc(-c2cnc(Nc3ccc(OCCN4CCCC4)cc3)s2)cc1,64.4%
Nc1cccc(-c2cc3c(Oc4cccc(O)c4)ncnc3[nH]2)c1,15.8%
COc1cc2ncnc(Nc3ccc(O)c(Br)c3)c2cc1OC,48.5%
CCN(CC)C(=O)c1ccc(Nc2nc(OCC3CCCCC3)c3[nH]cnc3n2)cc1,25.9%
c1ccc(-c2[nH]ncc2-c2ccnc3ccccc23)nc1,92.2%
Cc1cc2ncc(-c3ccccc3)nc2cc1C,115%
C[C@@H]1CCN(C(=O)CC#N)C[C@@H]1N(C)c1ncnc2[nH]ccc12,97.5%
O=C1C(Cl)=C(N2C(=O)CCC2=O)C(=O)c2ccccc21,102%
Cc1cn(-c2cc(NC(=O)c3ccc(C)c(Nc4nccc(-c5cccnc5)n4)c3)cc(C(F)(F)F)c2)cn1,91.7%
O=C(Nc1cccc(Nc2nccc(Nc3cccc(C(F)(F)F)c3)n2)c1)C1CC1,95.9%
COc1cc2ncnc(Nc3cccc(Cl)c3)c2cc1OC,99.3%
CCOc1nc(NC(=O)Cc2cc(OC)ccc2OC)cc(N)c1C#N,92.3%
O=c1cc(-c2cccc3c2Sc2ccccc2S3)oc(N2CCOCC2)c1,104%
Ic1cccc(CSc2nnc(-c3ccncc3)o2)c1,96.2%
N#Cc1c(NC(=O)c2cccc3ccccc23)sc2c1CCCC2,89.8%
CN(C)C[C@H]1CCn2c(c(C3=C(c4cn(C)c5ccccc45)C(=O)NC3=O)c3ccccc32)C1,114%
N#C/C(=C\c1ccc(O)c(O)c1)C(=O)NCc1ccccc1,87.7%
CCN(CC)CCNC(=O)c1c(C)[nH]c(/C=C2\C(=O)Nc3ccc(F)cc32)c1C,17.4%
O=C(NC(NC(=S)Nc1ccc(F)c([N+](=O)[O-])c1)C(Cl)(Cl)Cl)C(c1ccccc1)c1ccccc1 (stereo not drawn),102%
COc1cc2c(cc1OC)-c1[nH]nc(Nc3cccc(F)c3)c1C2,82.6%
Cc1nc2cc3nc(-c4cccs4)cnc3cc2n1C,86.2%
O=C1c2ccccc2-c2n[nH]c3cccc1c23,63.6%
CCN(CC)CCNC(=O)c1c(C)[nH]c(/C=C2\C(=O)Nc3ccc(Cl)cc32)c1C,12.1%
CN([C@@H](Cc1ccc(OS(=O)(=O)c2cccc3cnccc23)cc1)C(=O)N1CCN(c2ccccc2)CC1)S(=O)(=O)c1cccc2cnccc12,90.5%

# Sample 3
# Target: Calcium/calmodulin-dependent protein kinase type II subunit alpha (CAMK2A, Homo sapiens, UniProt Q9UQM7)
# Chain of UniProt Q9UQM7 (whole entry, looked up): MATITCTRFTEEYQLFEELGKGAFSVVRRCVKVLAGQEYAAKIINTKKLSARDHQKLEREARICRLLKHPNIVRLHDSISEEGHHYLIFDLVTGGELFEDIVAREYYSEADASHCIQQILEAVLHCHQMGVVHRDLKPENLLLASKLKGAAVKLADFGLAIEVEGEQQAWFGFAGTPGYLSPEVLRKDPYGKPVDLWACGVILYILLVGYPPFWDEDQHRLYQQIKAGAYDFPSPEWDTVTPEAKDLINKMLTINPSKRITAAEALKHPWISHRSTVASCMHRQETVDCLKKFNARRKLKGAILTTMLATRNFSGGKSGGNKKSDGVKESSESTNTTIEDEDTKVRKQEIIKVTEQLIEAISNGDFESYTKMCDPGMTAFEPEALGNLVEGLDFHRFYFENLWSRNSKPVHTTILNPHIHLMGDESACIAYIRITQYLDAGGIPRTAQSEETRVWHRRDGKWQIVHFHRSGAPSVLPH
# Read-out: enzyme activity
# Action: inhibitor
# Tested at: 10 µM
SMILES,inhibition
CN1CCCN=C1/C=C/c1cccs1,-5%
CN(C)c1nc(N(C)C)nc(N(C)C)n1,-3%
CN(C/C=C/C#CC(C)(C)C)Cc1cccc2ccccc12,-6%
NC(N)=NCCCC(N)C(=O)O (racemic),39%
Oc1ccc(CC2NCCc3cc(O)c(O)cc32)cc1 (stereo not drawn),25%
CN(C)CC/C=C1/c2ccccc2COc2ccc(CC(=O)O)cc21,2%
C=C1C(=O)O[C@@H]2/C=C(\C)[C@@H](OC(C)=O)C/C=C(\COC(C)=O)C[C@@H](OC(=O)/C(C)=C/CO)[C@@H]12,-0.09% and -0.27%
Cc1ccc2oc(-c3ccccc3)cc(=O)c2c1,-8%

# Sample 4
# SMILES: CCOC(=O)c1cc2cc(-c3cc(C(=O)NCc4ccc(C(=O)O)cc4)nn3C)ccc2[nH]1
# Read-out: cell-free assay
# Method: competition with immobilised ligand
# Tested at: 0.1 µM
target,remaining binding
"Ribosomal protein S6 kinase alpha-3, C-terminal kinase domain (RPS6KA3, Homo sapiens, UniProt P51812)",80%
"MAPK4 (Homo sapiens, UniProt P31152)",86%
"STK39 (Homo sapiens, UniProt Q9UEW8)",85%
"ERN1 (Homo sapiens, UniProt O75460)",90%
"MET (Homo sapiens, UniProt P08581, M1250T)",87%
"Tyrosine-protein kinase ABL1, non-phosphorylated (ABL1, Homo sapiens, UniProt P00519, Q252H)",92%
"ULK3 (Homo sapiens, UniProt Q6PHR2)",100%
"MAPK3 (Homo sapiens, UniProt P27361)",88%
"STK11 (Homo sapiens, UniProt Q15831)",100%
"CSNK1A1L (Homo sapiens, UniProt Q8N752)",100%
"EGFR (Homo sapiens, UniProt P00533, A750P/del747-749)",94%
"TLK2 (Homo sapiens, UniProt Q86UE8)",93%
"CDK16 (Homo sapiens, UniProt Q00536)",75%
"ABL2 (Homo sapiens, UniProt P42684)",100%
"RET (Homo sapiens, UniProt P07949, M918T)",100%
"NEK9 (Homo sapiens, UniProt Q8TD19)",98%
"MAP3K12 (Homo sapiens, UniProt Q12852)",79%
"PRKCH (Homo sapiens, UniProt P24723)",87%
"PDGFRA (Homo sapiens, UniProt P16234)",86%
"FLT3 (Homo sapiens, UniProt P36888)",90%
"RIOK1 (Homo sapiens, UniProt Q9BRS2)",96%
"EGFR (Homo sapiens, UniProt P00533, L861Q)",100%
"NEK10 (Homo sapiens, UniProt Q6ZWH5)",90%
"MARK2 (Homo sapiens, UniProt Q7KZI7)",100%

# For quick reference, copied from above (sample 2):
SMILES,remaining activity
Ic1cccc(CSc2nnc(-c3ccncc3)o2)c1,96.2%
N#Cc1c(NC(=O)c2cccc3ccccc23)sc2c1CCCC2,89.8%
CN(C)C[C@H]1CCn2c(c(C3=C(c4cn(C)c5ccccc45)C(=O)NC3=O)c3ccccc32)C1,114%
N#C/C(=C\c1ccc(O)c(O)c1)C(=O)NCc1ccccc1,87.7%
CCN(CC)CCNC(=O)c1c(C)[nH]c(/C=C2\C(=O)Nc3ccc(F)cc32)c1C,17.4%
O=C(NC(NC(=S)Nc1ccc(F)c([N+](=O)[O-])c1)C(Cl)(Cl)Cl)C(c1ccccc1)c1ccccc1 (stereo not drawn),102%
COc1cc2c(cc1OC)-c1[nH]nc(Nc3cccc(F)c3)c1C2,82.6%
Cc1nc2cc3nc(-c4cccs4)cnc3cc2n1C,86.2%
O=C1c2ccccc2-c2n[nH]c3cccc1c23,63.6%
CCN(CC)CCNC(=O)c1c(C)[nH]c(/C=C2\C(=O)Nc3ccc(Cl)cc32)c1C,12.1%
CN([C@@H](Cc1ccc(OS(=O)(=O)c2cccc3cnccc23)cc1)C(=O)N1CCN(c2ccccc2)CC1)S(=O)(=O)c1cccc2cnccc12,90.5%
